{"data": "Experimental data pooled from the literature", "note": "A part holds a random share of what one study measured. Positions count from the first letter of the parent shown."}
{"data": "Block 1", "target": "CCND3, cyclin fold, Cln2 fusion (human)", "technique": "yeast growth competition, sequencing", "matrix": "yeast", "setting": "weak parent motif", "baseline": "not given", "direction": "higher = stronger binding", "starting sequence": "CDC6 docking peptide (human); TLKGRRLVFDNQL"}
{"Substitution": "TLKGRRLVFDTQL [N11T]", "normalised enrichment score": 0.145}
{"Substitution": "TLKGRRLVSDNQL [F9S]", "normalised enrichment score": 0.0871}
{"Substitution": "TIKGRRLVFDNQL [L2I]", "normalised enrichment score": 0.121}
{"Substitution": "TLKNRRLVFDNQL [G4N]", "normalised enrichment score": 0.0806}
{"Substitution": "TLKGRRLVFDYQL [N11Y]", "normalised enrichment score": 0.178}
{"Substitution": "ILKGRRLVFDNQL [T1I]", "normalised enrichment score": 0.105}
{"Substitution": "TLNGRRLVFDNQL [K3N]", "normalised enrichment score": 0.098}
{"Substitution": "TLKGRSLVFDNQL [R6S]", "normalised enrichment score": -0.0213}
{"Substitution": "TLKYRRLVFDNQL [G4Y]", "normalised enrichment score": 0.0484}
{"data": "Block 2", "target": "Interferon regulatory factor 7, full length, phosphomimetic (IRF7, Homo sapiens, UniProt Q92985, residues 1-503, S471D/S472D/S475D/S476D/S477D/S483D/S484D/S487D)", "technique": "protein-binding microarray", "molecule type": "double-stranded DNA, one strand shown", "matrix": "in vitro", "concentration": "2200 nM top", "setting": "60-bp whole probe", "added": "salmon DNA 0.4 mg/ml", "baseline": "random background probes", "direction": "higher = stronger binding", "all sequences stand within": "GCCTAGCAC … GTCTTGATTCGCTTGACGCTGCTG", "chain of UniProt Q92985 (whole entry, unmodified, looked up)": "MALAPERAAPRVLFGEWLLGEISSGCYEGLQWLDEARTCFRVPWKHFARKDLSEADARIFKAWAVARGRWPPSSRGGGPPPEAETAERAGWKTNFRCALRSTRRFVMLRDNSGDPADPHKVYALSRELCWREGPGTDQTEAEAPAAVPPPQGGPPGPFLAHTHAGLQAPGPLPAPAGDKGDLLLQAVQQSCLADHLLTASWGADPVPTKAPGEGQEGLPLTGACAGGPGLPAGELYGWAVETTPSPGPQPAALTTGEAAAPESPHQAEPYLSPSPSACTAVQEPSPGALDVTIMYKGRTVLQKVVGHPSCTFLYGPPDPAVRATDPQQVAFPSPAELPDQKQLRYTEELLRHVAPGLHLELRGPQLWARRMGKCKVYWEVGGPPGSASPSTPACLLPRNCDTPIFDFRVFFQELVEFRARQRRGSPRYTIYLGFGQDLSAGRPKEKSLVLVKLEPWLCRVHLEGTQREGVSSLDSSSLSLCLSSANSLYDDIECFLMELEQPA"}
{"Strand": "TCAATTTTAGTTTTCATACTGTGCTAG", "fitted relative affinity": "1.91 z-score"}
{"Strand": "TTAGGTTCCGGTTCCGGTTAGTGCTAG", "fitted relative affinity": "3.33 z-score"}
{"Strand": "GACGGTATCGACTTTCAGGACGTGCTA", "fitted relative affinity": "0.935 z-score"}
{"Strand": "TTAGGACTGGGACTGCGTTAGTGCTAG", "fitted relative affinity": "-0.705 z-score"}
{"Strand": "AAAAATGATTGGTTGAACATGTGCTAG", "fitted relative affinity": "-0.663 z-score"}
{"Strand": "TCAGAATTACCTCTGGAACTGTGCTAG", "fitted relative affinity": "-0.34 z-score"}
{"Strand": "TTAGCTTTCGGACTGGGTTAGTGCTAG", "fitted relative affinity": "3.68 z-score"}
{"data": "Block 3", "target": "PABPC1L2, full length, GST fusion (mouse, UniProt A0ABA7IW68)", "technique": "RNAcompete", "molecule type": "RNA", "matrix": "in vitro", "concentration": "20 nM", "setting": "7-mer, probes averaged, single round", "baseline": "mean of 7-mers", "direction": "higher = stronger binding", "Construct (chain)": "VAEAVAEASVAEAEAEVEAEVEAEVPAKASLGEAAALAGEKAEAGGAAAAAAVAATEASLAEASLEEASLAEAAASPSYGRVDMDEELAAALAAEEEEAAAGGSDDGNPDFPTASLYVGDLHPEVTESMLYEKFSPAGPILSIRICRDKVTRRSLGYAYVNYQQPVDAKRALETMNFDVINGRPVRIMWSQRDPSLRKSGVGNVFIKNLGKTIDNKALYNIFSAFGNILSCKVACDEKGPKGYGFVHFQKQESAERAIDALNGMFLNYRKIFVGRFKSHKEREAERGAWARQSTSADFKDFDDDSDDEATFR"}
{"Strand": "GAUCUAU", "7-mer Z-score": -0.148}
{"Strand": "CUGGCGU", "7-mer Z-score": -0.144}
{"Strand": "AUGCCUC", "7-mer Z-score": -0.296}
{"Strand": "AUGUAAA", "7-mer Z-score": 0.948}
{"Strand": "UCGACGU", "7-mer Z-score": -0.18}
{"Strand": "AUUCAAA", "7-mer Z-score": 0.158}
{"Strand": "GGCGGGG", "7-mer Z-score": 0.338}
{"Strand": "CCAACCC", "7-mer Z-score": -0.358}
{"data": "Other studies, line by line"}
{"Substance": "PhoQ, residues 284 288 289 292 302 303 ALAMYF", "target": "PhoP, residues 12 14 15 18 19 AWHSL (Escherichia coli, UniProt P23836)", "assay": "Sort-seq, item: YFP reporter", "test system": "E. coli", "conditions": "PhoQ-PhoP variant library, added: 10 µM Mg2+", "how to read": "baseline: high Mg2+ state, higher = stronger signaling", "quantity": "fold induction", "value": 2.64}
{"note": "Repeated from above (block 1):"}
{"Substitution": "TLKGRRLVSDNQL [F9S]", "normalised enrichment score": 0.0871}
{"Substitution": "TIKGRRLVFDNQL [L2I]", "normalised enrichment score": 0.121}
